Assay results pooled from the literature.
Protocols differ between the studies behind these lines. ± marks the error that the study gave.

`CCOc1ccc2c(c1)C(C)=CC(C)(C)N2` has a residue concentration of 7.5 ± 4.5 ng/g (LC-MS/MS; piglets, liver; oral, 50 mg/kg feed, 42 days, after glucuronidase).
The uptake ratio of `CC(C)[C@H](NC(=O)[C@@H]1CCCN1C(=O)[C@H](CCCNC(=N)N)NC(=O)[C@H](CS)NC(=O)[C@H](Cc1c[nH]c2ccccc12)NC(=O)[C@H](CCCNC(=N)N)NC(=O)[C@@H](Cc1ccccc1)NC(=O)[C@H](Cc1c[nH]cn1)NC(=O)[C@H](CCC(=O)O)NC(=O)[C@H](CS)NC(=O)[C@H](CS)NC(=O)[C@H](CCCCN)NC(=O)[C@@H]1CC(=O)N[C@@H](CCCNC(=N)N)C(=O)N[C@@H](C(C)C)C(=O)N[C@@H](CC(=O)O)C(=O)N[C@H](Cc2ccc(O)cc2)C(=O)N1)C(N)=O` [technetium-99m labelled] is reported as 50.3 (C57 mouse, female, B16/F1 melanoma; intravenous, 2 h, with: NDP-MSH 10 µg co-injected; reference: tumour over muscle).
The AUC(0-inf) of `Cn1c(-c2ccc(C(N)=O)cc2F)nnc1C(C)(C)Oc1c(F)cc(Cl)cc1F` is reported as 3040 ng·h/mL (elderly non-Japanese subjects, plasma; oral, 20 mg single dose, day 1, median).
`CC[C@H](C)CCCCC(=O)N[C@@H](CCN)C(=O)N[C@H](C(=O)N[C@@H](CCN)C(=O)N[C@H]1CCNC(=O)[C@H]([C@@H](C)O)NC(=O)[C@H](CCN)NC(=O)[C@H](CCN)NC(=O)[C@H](CC(C)C)NC(=O)[C@@H](Cc2ccccc2)NC(=O)[C@H](CCN)NC1=O)[C@@H](C)O` has a free Cmin of 0.07 µg/mL (equilibrium dialysis LC-MS/MS; human patients, plasma; dose not given, median).
For `CC(=O)N[C@@H](Cc1ccccc1)C(=O)N[C@H]1CCCNC(=O)[C@H](CCCNC(=N)N)NC(=O)[C@H](Cc2c[nH]c3ccccc23)NC(=O)[C@@H](CC2CCCCC2)NC(=O)[C@@H]2CCCN2C1=O`, the elimination half-life was 57.4 min (C57BL/6J mice, brain; intraperitoneal, 1 mg/kg).
For `COc1cccc(-c2ccc(NC(=O)C3=C(C(=O)O)CCC3)c(F)c2)c1`, the AUC(0-24h) was 166 µg·h/mL (human, male, plasma; oral, 50 mg once daily, day 13, geometric mean).
The AUC(0-t) of `CNCc1ccc(-c2[nH]c3cc(F)cc4c3c2CCNC4=O)cc1` is reported as 10700 ng·h/mL (human patients, plasma; oral, 240 mg twice daily, day 15, steady state, arithmetic mean).
`CC(=O)N[C@H](CSSC[C@H](N)C(=O)O)C(=O)N[C@H](C)C(=O)N[C@H](CCCNC(=N)N)C(=O)N[C@H](CCCNC(=N)N)C(=O)N[C@H](CCCNC(=N)N)C(=O)N[C@H](C)C(=O)N[C@H](CCCNC(=N)N)C(N)=O` — result for “SAPC conjugate share”: roughly 60% (human whole blood; 5 µM, 3 h, 37 °C; reference: products).
`CO[C@@H]1[C@@H](OC(N)=O)[C@@H](O)[C@H](Oc2ccc3c(O)c(NC(=O)c4ccc(O)c(CC=C(C)C)c4)c(=O)oc3c2C)OC1(C)C` gave an EC20 of 290 µM (mitochondrial swelling; BALB/cByJ female mouse liver mitochondria; 30 min, with: succinate + rotenone; reference: CaCl2 maximal swelling).
Under “processed sample stability”, `NC(=O)CC[C@@H]1NC(=O)[C@H](Cc2ccccc2)NC(=O)[C@H](Cc2ccc(O)cc2)NC(=O)CCSSC[C@@H](C(=O)N2CCC[C@H]2C(=O)N[C@H](CCCN=C(N)N)C(=O)NCC(N)=O)NC(=O)[C@H](CC(N)=O)NC1=O` is recorded as 97.7% (UPLC-MS/MS; processed plasma extract; 156.23 pg/mL, 48 h, 10 °C, autosampler).
`CC[C@H](C)[C@H](NC(=O)[C@H](Cc1ccccc1)NC(=O)[C@H](CCC(=O)O)NC(=O)[C@H](CCCCNC(=O)COCCOCCNC(=O)COCCOCCNC(=O)CC[C@H](NC(=O)CCCCCCCCCCCCCCCCC(=O)O)C(=O)O)NC(=O)[C@H](C)NC(=O)[C@H](C)NC(=O)[C@H](CCC(N)=O)NC(=O)CNC(=O)[C@H](CCC(=O)O)NC(=O)[C@H](CC(C)C)NC(=O)[C@H](Cc1ccc(O)cc1)NC(=O)[C@H](CO)NC(=O)[C@H](CO)NC(=O)[C@@H](NC(=O)[C@H](CC(=O)O)NC(=O)[C@H](CO)NC(=O)[C@@H](NC(=O)[C@H](Cc1ccccc1)NC(=O)[C@@H](NC(=O)CNC(=O)[C@H](CCC(=O)O)NC(=O)C(C)(C)NC(=O)[C@@H](N)Cc1cnc[nH]1)[C@@H](C)O)[C@@H](C)O)C(C)C)C(=O)N[C@@H](C)C(=O)N[C@@H](Cc1c[nH]c2ccccc12)C(=O)N[C@@H](CC(C)C)C(=O)N[C@H](C(=O)N[C@@H](CCCNC(=N)N)C(=O)NCC(=O)N[C@@H](CCCNC(=N)N)C(=O)NCC(=O)O)C(C)C`: “AUC(0-168 h) ratio” 2.22 (healthy Caucasian subjects, plasma; subcutaneous, steady state, once weekly; reference: 1.0 mg over 0.5 mg).
`CCOC(=O)c1nn(C(=O)C2CC2)c2ccncc12` has a half-life of greater than 240 min (chemical stability; aqueous buffer; pH 7.4).
For `CC[C@H](C)[C@H](NC(=O)[C@H](CO)NC(=O)[C@H](Cc1ccc(O)cc1)NC(=O)[C@H](CC(=O)O)NC(=O)[C@H](CO)NC(=O)[C@@H](NC(=O)[C@H](Cc1ccccc1)NC(=O)[C@@H](NC(=O)CNC(=O)[C@H](CCC(=O)O)NC(=O)[C@H](C)NC(=O)[C@@H](N)Cc1ccc(O)cc1)[C@@H](C)O)[C@@H](C)CC)C(=O)N[C@@H](C)C(=O)N[C@@H](CCSC)C(=O)N[C@@H](CC(=O)O)C(=O)N[C@@H](CCCCN)C(=O)N[C@H](C(=O)N[C@@H](CCCNC(=N)N)C(=O)N[C@@H](CCC(N)=O)C(=O)N[C@@H](CCC(N)=O)C(=O)N[C@@H](CC(=O)O)C(=O)N[C@@H](Cc1ccccc1)C(=O)N[C@H](C(=O)N[C@@H](CC(N)=O)C(=O)N[C@@H](Cc1c[nH]c2ccccc12)C(=O)N[C@@H](CC(C)C)C(=O)N[C@@H](CC(C)C)C(=O)N[C@@H](C)C(=O)N[C@@H](CCC(N)=O)C(=O)N[C@@H](CCCNC(=N)N)C(=O)NCC(=O)N[C@@H](CCCCN)C(=O)N[C@@H](CCCCN)C(=O)N[C@@H](CO)C(=O)N[C@@H](CC(=O)O)C(=O)N[C@@H](Cc1c[nH]c2ccccc12)C(=O)N[C@@H](CCCCN)C(=O)N[C@@H](Cc1c[nH]cn1)C(=O)N[C@@H](CC(N)=O)C(=O)N[C@H](C(=O)N[C@H](C(=O)N[C@@H](CCC(N)=O)C(=O)O)[C@@H](C)O)[C@@H](C)CC)C(C)C)[C@@H](C)CC`, the apparent half-life was roughly 90 s (radioimmunoassay, refers to: intact compound; C57BL/6 mice, female, fasted, plasma; intravenous, 25 nmol/kg).
For `Cc1c2oc3c(C)ccc(C(=O)N[C@@H]4C(=O)N[C@H](C(C)C)C(=O)N5CCC[C@H]5C(=O)N(C)CC(=O)N(C)[C@@H](C(C)C)C(=O)O[C@@H]4C)c3nc-2c(C(=O)N[C@@H]2C(=O)N[C@H](C(C)C)C(=O)N3CCC[C@H]3C(=O)N(C)CC(=O)N(C)[C@@H](C(C)C)C(=O)O[C@@H]2C)c(N)c1=O`, the AUC(0-inf) was 145 ng·h/mL (mouse, Abcc2 knockout FVB, plasma; intravenous, 0.5 mg/kg).
For `COc1ccc2nc([S@@+]([O-])Cc3ncc(C)c(OC)c3C)[nH]c2c1`, the adverse events was 0% (human healthy; 40 mg, reproductive and breast disorders).
`CCCC[C@H](NC(C)=O)C(=O)N[C@H]1CCC(=O)NC[C@@H](C(=O)N[C@@H](Cc2c[nH]c3ccccc23)C(N)=O)NC(=O)[C@H](CCCNC(=N)N)NC(=O)[C@@H](Cc2ccccc2)NC(=O)[C@H](Cc2c[nH]cn2)NC1=O` has a Cmax of 128 ng/mL (beagle dog, female, plasma; subcutaneous, 1.5 mg/kg daily, day 14).
`CO[C@]12C[C@@H](COC(=O)c3cncc(Br)c3)CN(C)[C@@H]1Cc1cn(C)c3cccc2c13` gave an EC20 of greater than 200 µM (cytochrome c release, ELISA; BALB/cByJ female mouse liver mitochondria; 30 min; reference: alamethicin maximal release).
`Cc1nc2cccc(N)c2c(=O)n1C1CCC(=O)NC1=O` (stereo not shown) gave a CL/F of 2.74 L/h (healthy adults; oral, 3 mg, geometric mean, with: fluvoxamine 50 mg twice daily).
For `CN[C@@H]1[C@H](O)[C@H](NC)[C@H]2O[C@@]3(O)C(=O)C[C@@H](C)O[C@H]3O[C@@H]2[C@H]1O`, the EC20 was greater than 400 µM (cytochrome c release, ELISA; BALB/cByJ female mouse liver mitochondria; 30 min; reference: alamethicin maximal release).
With `CC(=O)CCc1ccc(O)cc1` the AUC(0-12 h) was 33.7 ± 2.3 nmol·min/g (normal-weight male C57BL/6J mice, brain; oral, 200 mg/kg).
`CCC(C)n1ncn(-c2ccc(N3CCN(c4ccc(OCC5COC(Cn6cncn6)(c6ccc(Cl)cc6Cl)O5)cc4)CC3)cc2)c1=O` (stereo not shown) gave an AUC(0-24 h) of 4700 ng·h/mL (human male, plasma; oral, 200 mg, day 3, geometric mean).
For `CS(=O)(=O)n1cc2c(n1)CN([C@H]1CO[C@H](c3cc(F)ccc3F)[C@@H](N)C1)C2`, the Ctrough was 10.4 nM (healthy Japanese men, plasma; oral, 10 mg once weekly, day 1).
`CC[C@H](C)[C@H](NC(=O)[C@H](C)NC(=O)[C@H](CCC(=O)O)NC(=O)[C@H](CCCCNC(=O)c1ccc2c(c1)C1(OC2=O)c2ccc(O)cc2Oc2cc(O)ccc21)NC(=O)CCOCCOCCOCCNC(=O)CCOCCOCCOCCNC(=O)[C@H](CCCNC(=N)N)NC(=O)CNC(=O)[C@H]1CCCN1C(=O)[C@@H](N)Cc1c[nH]c2ccccc12)C(=O)N[C@@H](Cc1ccc(O)cc1)C(=O)N[C@@H](C)C(=O)N[C@@H](C)C(=O)N1CCC[C@H]1C(=O)N[C@@H](Cc1ccccc1)C(=O)N[C@@H](C)C(=O)N[C@@H](CCCCN)C(=O)N[C@@H](CCCCN)C(=O)N[C@@H](CCCCN)C(N)=O`: “initial degradation rate” 2.2 pmol/mg/s (Baf/BCR-ABL cell lysate; 2 µM, 37 °C).
`C[C@]12CC[C@@H]3c4ccc(O)cc4CC[C@H]3[C@@H]1C[C@@H](O)[C@@H]2O`: “minimum serum concentration” 0 ng/mL (GC-MS; breast cancer women on NSAI, serum; vaginal, 0.03 mg, 4 h, day 0).
`COc1cccc(N2CCN(C3=Nc4c(F)cccc4[C@H](CC(=O)O)N3c3cc(C(F)(F)F)ccc3OC)CC2)c1` has a clearance of 137 ± 28.7 mL/min (healthy women, plasma; intravenous infusion, 240 mg, day 1, single dose, 30-min infusion).
`CC(C)(Oc1ccc(C2CC2(Cl)Cl)cc1)C(=O)O` (stereo not shown) — result for growth rate: “no effect” (female Sprague-Dawley rat; oral, 7.5 mg/kg/day, 21 days).
For `CC[C@H]1OC(=O)[C@H](C)[C@@H](O[C@H]2C[C@@](C)(OC)[C@@H](O)[C@H](C)O2)[C@H](C)[C@@H](O[C@@H]2O[C@H](C)C[C@H](N(C)C)[C@H]2O)[C@](C)(O)C[C@@H](C)/C(=N\OCOCCOC)[C@H](C)[C@@H](O)[C@]1(C)O`, the EC20 was 310 µM (mitochondrial swelling; BALB/cByJ female mouse liver mitochondria; 30 min, with: succinate + rotenone; reference: CaCl2 maximal swelling).
`CCc1cc2c(C(=O)c3cc(Br)c(O)c(Br)c3)c(OC)ccc2o1` gave a microsomal CLint of 6.2 µL/min/mg (metabolic stability; Sprague-Dawley rat, liver microsomes; 1 µM, pH 7.4).

For quick reference, copied from above:
The AUC(0-inf) of `Cn1c(-c2ccc(C(N)=O)cc2F)nnc1C(C)(C)Oc1c(F)cc(Cl)cc1F` is reported as 3040 ng·h/mL (elderly non-Japanese subjects, plasma; oral, 20 mg single dose, day 1, median).
For `COc1ccc2nc([S@@+]([O-])Cc3ncc(C)c(OC)c3C)[nH]c2c1`, the adverse events was 0% (human healthy; 40 mg, reproductive and breast disorders).
